Values quoted from earlier work as cited in several papers.
Lines come from different studies, so protocols differ. ± gives the spread as reported.
EGFR L858R: Epidermal growth factor receptor (EGFR, Homo sapiens, UniProt P00533, L858R)

SMILES	target	test	setting	how to read	measurement	result
O=c1[nH]c(SC[C@H](O)[C@H](O)[C@H](O)CO)c([N+](=O)[O-])c(=O)[nH]1	ribH (Mycobacterium tuberculosis, UniProt P9WHE9)	–	pH 7.0	–	Ki (uncompetitive, ESI)	62 ± 23 µM
C=CCC(=N)NCCC[C@H](N)C(=O)O	nitric oxide synthase	–	–	baseline: Ki eNOS over Ki nNOS	selectivity ratio	120
OCCn1cc(CO[C@@H]2O[C@H](CO)[C@H](O)[C@H](O)[C@H]2O)nn1	lecA (Pseudomonas aeruginosa, UniProt Q05097)	ITC	–	–	ΔG	-6.3 kcal/mol
C=CC(=O)N1CCC[C@@H](n2nc(-c3ccc4ccccc4c3)c3c(N)ncnc32)C1	EGFR L858R	–	–	–	kinact/Ki	1.6e+06 ± 530000 M⁻¹ s⁻¹
COc1cc2c(cc1OC)CN(CCCCn1ccc3cc(OCC[18F])ccc31)C2	Tmem97 (Rattus norvegicus, UniProt Q5U3Y7)	binding	–	baseline: Ki sigma1 over Ki sigma2	selectivity ratio	57
C=CC(=O)N1CCC[C@@H](n2nc(-c3cccc4ccccc34)c3c(N)ncnc32)C1	EGFR (Homo sapiens, UniProt P00533, L858R/T790M)	–	–	–	kinact/Ki	90000 ± 20000 M⁻¹ s⁻¹
C[n+]1cn([C@@H]2O[C@H](COP(=O)([O-])OP(=O)(O)CP(=O)(O)OP(=O)(O)OC[C@H]3O[C@@H](n4cnc5c(=O)[nH]c(N)nc54)[C@H](O)[C@@H]3O)[C@@H](O)[C@H]2O)c2nc(N)nc(O)c21	Eukaryotic translation initiation factor 4E, residues 28-217 (Eif4e, Mus musculus, UniProt P63073)	binding, fluorescence quenching titration	pH 7.2	–	association constant	48.6 µM⁻¹
O=C(O[C@@H]1Cc2c(O)cc(O)cc2O[C@@H]1c1cc(O)c(O)c(O)c1)c1cc(O)c(O)c(O)c1	serum albumin, human	binding, tryptophan fluorescence quenching	–	–	association constant	0.05 µM⁻¹
CC(=O)c1ccc(OCc2ccc(Br)cc2)cc1O	MAOB (Homo sapiens, UniProt P27338)	–	–	baseline: IC50 MAO-A over IC50 MAO-B	selectivity ratio	569
CCCCN(CCc1ccccc1)CCc1cccc(O)c1	OPRK1 (Homo sapiens, UniProt P41145)	agonist	–	–	Emax	45.5%
CO[C@H]1O[C@H](CO)[C@@H](O)[C@H](O)[C@@H]1O	lecB (Pseudomonas aeruginosa, UniProt Q9HYN5)	binding, ITC	–	–	ΔH	-4.3 kcal/mol
Cc1cccc(C)c1NC(=O)C1CCN(Cc2ccccc2)C1 (stereo not shown)	SCN4A (Homo sapiens, UniProt P35499)	sodium current block, blocker	–	baseline: 0.1 Hz over compound Hz	IC50 ratio	13.7
C=CC(=O)N1CCC[C@@H](n2nc(-c3cn(C)c4ccccc34)c3c(N)ncnc32)C1	EGFR L858R	–	–	–	kinact/Ki	140000 ± 70000 M⁻¹ s⁻¹
CNc1ccccc1C(=O)O[C@H]1C[C@H](n2cnc3c(N)ncnc32)O[C@@H]1COP(=O)(O)OP(=O)(O)O	Unconventional myosin-Va (Gallus gallus, UniProt Q02440, D297C/G292C/I296C/S293C/V295G)	–	concentration not given, temperature dependence, together with: 1 mM MgCl2	–	FRET distance change	2 to 4 Å
Nc1c(SC[C@H](O)[C@H](O)[C@H](O)CO)[nH]c(=O)[nH]c1=O	6,7-dimethyl-8-ribityllumazine synthase (rib4, Schizosaccharomyces pombe, UniProt Q9UUB1)	enzyme kinetics	pH 7.0	lower = tighter substrate binding	Ks	0.59 ± 0.06 µM
CC(=O)N[C@@H](Cc1ccccc1)C(=O)N[C@@H](CC(=O)O)C(=O)N[C@@H](CC(N)=O)C(=O)N1CCC[C@H]1C(=O)N[C@H](C(=O)N[C@@H](Cc1ccccc1)C(=O)O)C(C)C	LDL receptor, position 807 mutant	–	–	baseline: native LDL receptor	internalization index	0.95

Excerpt of the above:
SMILES	target	test	setting	how to read	measurement	result
C=CCC(=N)NCCC[C@H](N)C(=O)O	nitric oxide synthase	–	–	baseline: Ki eNOS over Ki nNOS	selectivity ratio	120
CC(=O)N[C@@H](Cc1ccccc1)C(=O)N[C@@H](CC(=O)O)C(=O)N[C@@H](CC(N)=O)C(=O)N1CCC[C@H]1C(=O)N[C@H](C(=O)N[C@@H](Cc1ccccc1)C(=O)O)C(C)C	LDL receptor, position 807 mutant	–	–	baseline: native LDL receptor	internalization index	0.95
Nc1c(SC[C@H](O)[C@H](O)[C@H](O)CO)[nH]c(=O)[nH]c1=O	6,7-dimethyl-8-ribityllumazine synthase (rib4, Schizosaccharomyces pombe, UniProt Q9UUB1)	enzyme kinetics	pH 7.0	lower = tighter substrate binding	Ks	0.59 ± 0.06 µM
